{"data": "Measured values pooled from the literature", "note": "A part holds a random share of what one study measured."}
{"data": "Block 1", "target": "Replicase polyprotein 1ab, polymerase (rep, Severe acute respiratory syndrome coronavirus 2, UniProt P0DTD1)", "effect on": "enzyme activity", "action": "inhibitor", "tested at": "20 µM"}
{"SMILES": "Cc1nn(-c2ccccc2)c(C)c1/C=N/N1CCN(Cc2ccccc2)CC1", "inhibition [%]": -1.45}
{"SMILES": "Cc1ccc(O)c([C@H](CCN(C(C)C)C(C)C)c2ccccc2)c1", "inhibition [%]": -2.68}
{"SMILES": "C#CCN1C(C)=C(C(=O)OC)C(c2cccc([N+](=O)[O-])c2)C(C(=O)OCC)=C1C (stereo not shown)", "inhibition [%]": -0.79}
{"SMILES": "c1ccc(-c2oc3ncnc(NC[C@@H]4CCCO4)c3c2-c2ccccc2)cc1", "inhibition [%]": -0.08}
{"SMILES": "CC(C)C1=C2[C@H]3CC[C@@H]4[C@@]5(C)CC[C@H](OC(=O)CC(C)(C)C(=O)O)C(C)(C)[C@@H]5CC[C@@]4(C)[C@]3(C)CC[C@@]2([C@@H](O)CN(CCN(C)C)Cc2ccc(Cl)cc2)CC1=O", "inhibition [%]": 2.4}
{"SMILES": "CCCc1nc(C(C)(C)O)c(C(=O)O)n1Cc1ccc(-c2ccccc2-c2nnn[nH]2)cc1", "inhibition [%]": -4.22}
{"SMILES": "COC(=O)c1cnn(-c2ccc(F)cc2F)c1/C=N/NC(=S)NC(C)(C)C", "inhibition [%]": -0.46}
{"SMILES": "COc1cc(C(=O)c2c(C)oc3c(O)c(OC)ccc23)cc(OC)c1OC", "inhibition [%]": -3.98}
{"SMILES": "CCOc1ccc(NC(=S)N2CCC(C(O)(c3ccccc3)c3ccccc3)CC2)cc1", "inhibition [%]": 13.5}
{"data": "Block 2", "target": "PABPC1L2, full length, GST fusion (mouse, UniProt A0ABA7IW68)", "technique": "RNAcompete", "molecule type": "RNA", "medium": "in vitro", "tested at": "20 nM", "setting": "7-mer, probes averaged, single round", "baseline": "mean of 7-mers", "reading": "higher = stronger binding", "Construct (chain)": "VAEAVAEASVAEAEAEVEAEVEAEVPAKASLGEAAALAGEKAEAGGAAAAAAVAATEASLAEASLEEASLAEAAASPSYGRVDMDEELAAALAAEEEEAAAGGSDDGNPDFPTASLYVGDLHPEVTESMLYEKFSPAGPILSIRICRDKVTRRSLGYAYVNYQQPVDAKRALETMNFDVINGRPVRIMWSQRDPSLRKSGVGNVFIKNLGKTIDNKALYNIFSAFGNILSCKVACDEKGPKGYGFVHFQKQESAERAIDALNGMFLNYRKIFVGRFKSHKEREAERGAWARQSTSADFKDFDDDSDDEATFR"}
{"Oligonucleotide": "AGAGUGC", "7-mer Z-score": -0.128}
{"Oligonucleotide": "GGUUUAG", "7-mer Z-score": -0.253}
{"Oligonucleotide": "AUAGGAU", "7-mer Z-score": 0.0714}
{"Oligonucleotide": "GUUCUGU", "7-mer Z-score": -0.402}
{"Oligonucleotide": "CAGUUUC", "7-mer Z-score": -0.369}
{"Oligonucleotide": "CACCUAU", "7-mer Z-score": -0.242}
{"Oligonucleotide": "UGCUUAC", "7-mer Z-score": -0.161}
{"Oligonucleotide": "UGCUAGA", "7-mer Z-score": 0.0569}
{"data": "Block 3", "target": "Replicase polyprotein 1ab, main protease (rep, Severe acute respiratory syndrome coronavirus 2, UniProt P0DTD1)", "effect on": "enzyme activity", "action": "inhibitor", "organism": "SARS-CoV-2", "added": "DTT"}
{"SMILES": "O=C1C(Cl)=C(N2CCOCC2)C(=O)N1c1ccc(Cl)c(Cl)c1", "IC50 [µM]": "> 20"}
{"SMILES": "COc1ccc(C(=O)n2nc(-c3ccccc3)nc2N)cc1OC", "IC50 [µM]": 30.2}
{"SMILES": "O=C(/C=C/c1ccc2ccccc2n1)c1ccncc1", "IC50 [µM]": 0.19}
{"SMILES": "S=C=Nc1cccc(NC(=S)NCCCCNC(=S)Nc2cccc(N=C=S)c2)c1", "IC50 [µM]": "> 20"}
{"data": "Block 4", "cell line": "HEK-293T", "organism": "VSV pseudotyped with SARS-CoV-2 spike", "tested at": "10 µM", "time": "16 h"}
{"SMILES": "COc1cc2c(c(OC)c1OC)-c1ccc(OC)c(=O)cc1[C@@H](NC(C)=O)CC2", "pseudovirus infection": "21.3%"}
{"SMILES": "Clc1ccc2c(c1)CCc1cccnc1C2=C1CCNCC1", "pseudovirus infection": "35.2%"}
{"SMILES": "NC(CO)(CO)CO", "pseudovirus infection": "93.8%"}
{"SMILES": "Cc1cccc([C@H](C)c2cnc[nH]2)c1C", "pseudovirus infection": "89.4%"}
{"note": "A few entries again (block 3):"}
{"SMILES": "O=C1C(Cl)=C(N2CCOCC2)C(=O)N1c1ccc(Cl)c(Cl)c1", "IC50 [µM]": "> 20"}
{"SMILES": "COc1ccc(C(=O)n2nc(-c3ccccc3)nc2N)cc1OC", "IC50 [µM]": 30.2}
{"SMILES": "O=C(/C=C/c1ccc2ccccc2n1)c1ccncc1", "IC50 [µM]": 0.19}
